Measured values gathered from unrelated publications.
Lines come from different studies, so protocols differ. ± marks the error that the study gave.

| Structure (SMILES) | test | system | setting | scale | endpoint | value |
| --- | --- | --- | --- | --- | --- | --- |
| C=C(c1ncc(C(=O)O)cn1)c1cc2c(cc1C)C(C)(C)CCC2(C)C | RNA sequencing, refers to: Ccl6 mRNA | rat, brain | dose not given, 24 h, single dose | reference: vehicle | log2 fold change | -1.46 |
| CCN1CCN(Cn2nc(C34CC5CC(CC(C5)C3)C4)n(-c3ccccc3)c2=S)CC1 | paw oedema | rat | intraperitoneal, 40 mg/kg |  | inhibition in vivo | 14.1% |
| CSCC[C@@H]1NC(=O)[C@H](CCCCN)NC(=O)[C@H]([C@@H](C)O)NC(=O)[C@H](CCCCN)NC(=O)[C@H](CC(C)C)NC(=O)[C@H](CCCCN)NC(=O)[C@H](CCCNC(=N)N)NC(=O)[C@@H]2CSSC[C@@H]3NC(=O)[C@@H]4CCCN4C(=O)[C@H](C(C)C)NC(=O)[C@H](CCC(N)=O)NC(=O)[C@H](CCC(N)=O)NC(=O)CNC(=O)[C@H](CC(C)C)NC(=O)[C@@H]4CSSC[C@H](NC(=O)[C@H]([C@@H](C)O)NC(=O)[C@H](C)NC(=O)[C@H](CSSC[C@@H](C(=O)N[C@@H](CO)C(=O)N[C@@H](CCCNC(=N)N)C(=O)N[C@H](C(N)=O)[C@@H](C)O)NC(=O)[C@@H]5CCCN5C(=O)[C@H](CC(N)=O)NC1=O)NC(=O)[C@@H]1CCCN1C(=O)[C@H](CC(=O)O)NC(=O)[C@H](CSSC[C@H](NC(=O)[C@H](CCCNC(=N)N)NC(=O)[C@H](CCCNC(=N)N)NC(=O)[C@H](CCCCN)NC(=O)[C@@H](N)CCCCN)C(=O)N[C@@H](C(C)C)C(=O)N[C@@H](CCCNC(=N)N)C(=O)N[C@@H](CC(C)C)C(=O)N[C@@H](Cc1c[nH]cn1)C(=O)N[C@@H](CCC(=O)O)C(=O)N[C@@H](CO)C(=O)N4)NC3=O)C(=O)N[C@@H](Cc1ccc(O)cc1)C(=O)N[C@H]1CSSC[C@H](NC(=O)[C@H](Cc3ccccc3)NC(=O)[C@H](C)NC(=O)[C@H](CC(N)=O)NC(=O)[C@H](Cc3ccccc3)NC(=O)[C@H](Cc3ccccc3)NC(=O)[C@H](CCCNC(=N)N)NC1=O)C(=O)N[C@@H](Cc1ccc(O)cc1)C(=O)N2 |  | Long-Evans rat, male | intracerebroventricular, 1.0 nmol, day 3, non-cumulative | reference: saline | food intake | 92.3 ± 8.3 % above saline |
| Clc1ccc2[nH]c(-c3ccco3)nc2c1 | ABTS scavenging, absorbance |  |  |  | IC50 | 1.38 µM |
| CN(C)/C=C1/C(=O)c2sccc2N(C)S1(=O)=O |  |  | 100 µM, pH 7.4, 37 °C, 10% acetonitrile, added: DTNB |  | second-order rate constant | 2.6 M⁻¹ s⁻¹ |
| CCc1nnc(NS(=O)(=O)c2ccc(NC(=S)NC(=O)/C=C/c3ccc(F)cc3)cc2)s1 | refers to: CD31 | NXS2 allograft, A/J mice, tumour | intraperitoneal, 20 mg/kg daily, 3 weeks | reference: vehicle | microvascular area | decreased |
| CC(C)C[C@@H]1NC(=O)[C@@H]2CSSC[C@@H]3NC(=O)[C@H]([C@@H](C)O)NC(=O)[C@H](C)NC(=O)[C@H](C)NC(=O)[C@@H]4CCCN4C(=O)[C@H](CC(=O)O)NC(=O)[C@H](CSSC[C@H](NC(=O)[C@H](CCCNC(=N)N)NC(=O)[C@H](CCCNC(=N)N)NC(=O)[C@H](CO)NC(=O)[C@@H](N)CO)C(=O)N[C@@H](C(C)C)C(=O)N[C@@H](CCCNC(=N)N)C(=O)N[C@@H](CC(C)C)C(=O)N[C@@H](Cc4c[nH]cn4)C(=O)N[C@@H](CCC(=O)O)C(=O)N[C@@H](CO)C(=O)N2)NC(=O)[C@H](CSSC[C@@H](C(=O)N[C@@H](CCCNC(=N)N)C(N)=O)NC(=O)[C@H](Cc2ccc(O)cc2)NC(=O)[C@@H]2CSSC[C@H](NC(=O)[C@H](Cc4ccc(O)cc4)NC3=O)C(=O)N[C@@H](CCCNC(=N)N)C(=O)N[C@@H](Cc3ccccc3)C(=O)N[C@@H](Cc3ccccc3)C(=O)N[C@@H](CC(N)=O)C(=O)N[C@@H](C)C(=O)N[C@@H](Cc3ccccc3)C(=O)N2)NC(=O)[C@@H]2CCCN2C(=O)[C@H](C(C)C)NC(=O)[C@H](CCC(N)=O)NC(=O)[C@H](CCC(N)=O)NC(=O)CNC1=O |  | Long-Evans rat, male | intracerebroventricular, 1.0 nmol, day 3, non-cumulative | reference: saline | food intake | 13.5 ± 1.5 % above saline |
| Cc1ccc(-c2oc3ccccc3c(=O)c2OCc2ccccc2)cc1 |  | diabetic rat | 7.5 mg/kg, day 14, p-nitrophenyl β-glucoside induced |  | blood glucose | 278 ± 4.98 mg/dL |
| COc1cc(CN2CCN(c3ccc(Cl)cc3)CC2)c2cc3[n+](cc2c1O)CCc1cc2c(cc1-3)OCO2 | ABTS scavenging, absorbance |  | 10 min |  | IC50 | 5.82 µg/mL |
| O=c1c(OCc2ccccc2)c(-c2ccc([N+](=O)[O-])cc2)oc2ccccc12 |  | diabetic rat | 7.5 mg/kg, day 28, p-nitrophenyl β-glucoside induced |  | blood glucose | 161 ± 4.41 mg/dL |
| COc1c2c(cc3oc(C)cc(=O)c13)O[C@H](C(C)(C)O[C@@H]1O[C@H](CO)[C@@H](O)[C@H](O)[C@H]1O)C2 | analgesic effect | Kunming mouse, female | oral, 1 mg/kg, 0 h, 55 °C, before dosing, 30 s cut-off |  | hot plate latency | 9.27 ± 1.46 s |
| Cc1cc(Nc2cc3ncccc3c(N[C@@H]3C[C@H]4CC[C@@H](C3)N4CCC#N)n2)n[nH]1 |  | moderate-severe ulcerative colitis patients | 80 mg, day 28 | reference: patients | clinical response | 20% |
| Cc1cc2nc(-c3cc4ccccc4nc3Cl)[nH]c2cc1C |  | mouse HepG2 xenograft | 20 mg/kg, day 41 |  | T/C tumor increment | 19.5% |
| O=c1c(OCc2ccccc2)c(-c2ccc(Cl)cc2)oc2ccccc12 |  | diabetic rat | 5 mg/kg, day 28, p-nitrophenyl β-glucoside induced |  | blood glucose | 136 ± 4.51 mg/dL |
| O=C1/C(=C/c2ccc(O)cc2)Oc2cc(O)c3c(oc4cc(O)c(O)cc43)c21 | DPPH scavenging, absorbance |  |  |  | EC50 | > 20000 µM |
| COc1cc2c(cc1OC)-c1cc3ccc(OC)c(OC)c3c[n+]1CC2 |  | rat, STZ-induced diabetic, serum | oral, 12 mg/kg, day 28 |  | triglycerides | 115 ± 3.81 mg/dL |
| CCCOC(=O)Cc1c(C)n(C(=O)c2ccc(Cl)cc2)c2ccc(OC)cc12 | hot plate test | BALB/c mice | 50 mg/kg, 90 min |  | latency of nociceptive response | 14.8 ± 0.76 s |
| COc1ccc(S(=O)(=O)N2CCc3ccccc3C2)cc1N1CCN(C(=O)c2ccc(F)cc2C(F)(F)F)CC1 |  | 6-OHDA lesioned rats | 0.1 µg/24 h, 12 weeks post lesion | reference: intact side | DAT-ir cells in SNpc | 9.1 ± 1.7% |
| COc1cc(F)c([C@@H]2CNC(=O)[C@H]2NC(=O)Nc2ccccc2)c(F)c1 | flow cytometry | mouse, myocardial infarction (LAD ligation), heart | 3 mg/kg, 72 h | reference: vehicle | CD206- of CD64+ macrophages | -60% |

| Structure (SMILES) | test | system | setting | scale | endpoint | value |
| --- | --- | --- | --- | --- | --- | --- |
| O=C1/C(=C/c2ccccc2)Oc2cc(O)c3c(oc4cc(O)c(O)cc43)c21 | DPPH scavenging, absorbance |  |  |  | EC50 | 200 µM |
| O=c1cc(-c2ccc(O)c(O)c2)oc2cc(O[C@@H]3O[C@H](CO)[C@@H](O)[C@H](O)[C@H]3O)cc(O)c12 | ABTS scavenging, absorbance |  | 15 min |  | IC50 | 113 µg/mL |
| COc1ccc(C2CC(c3ccc(C)cc3)=Nc3ccccc3S2)cc1OC (centres unmarked) |  | Wistar rat, STZ-induced diabetes | oral, 10 mg/kg once daily, day 7 |  | blood glucose | 286 mg/dL |
| CC[C@H]1[C@@H](O)[C@@H]2[C@H](CC[C@]3(C)[C@@H]([C@H](C)CCOS(=O)(=O)[O-])CC[C@@H]23)[C@@]2(C)CC[C@@H](O)C[C@@H]12.[Na+] | EchoMRI | ob/ob NASH mouse model | oral, 3 mg/kg once daily, 8 weeks | reference: body weight | whole-body fat mass | 40.4 ± 0.9% |
| CC/C=C\C/C=C\C/C=C\C/C=C\C/C=C\CCCCOC(CC)C(=O)O (centres unmarked) | Sirius red | APOE*3Leiden.CETP mice, high-fat/cholesterol diet | dose not given, 20 weeks | reference: control | fibrosis area change | -26% |
| CN1CCC(N[C@@H]2CCc3[nH]c4c(C(N)=O)ccc(-c5ccccc5Cl)c4c3C2)CC1 |  | BALB/c nude mouse RKO xenograft | oral, 20 mg/kg daily |  | regressing tumours | 64% |
| O=c1cc(-c2ccc(O)cc2)oc2cc3oc4cc(O)c(O)cc4c3c(O)c12 | DPPH scavenging, absorbance |  |  |  | EC50 | > 20000 µM |
| CC(=O)N[C@@H](CC(N)=O)C(=O)NCC(=O)N[C@@H](C)C(=O)N[C@@H](C)C(N)=O | 1H NMR | sodium phosphate buffer 50 mM | pH 7.4, 28 °C |  | rate constant succinimide to α-Asp | 0.055 h⁻¹ |
| CCCCCCCCCCCCCCCC(=O)OCC(CSC[C@H](N)C(=O)N[C@@H](CO)C(=O)N[C@@H](CCCCN)C(=O)N[C@@H](CCCCN)C(=O)N[C@@H](CCCCN)C(=O)N[C@@H](CCCCN)C(=O)NCCCCCC(=O)N[C@@H](CCCCN)C(=O)N[C@@H](CC(C)C)C(=O)N[C@H](C(=O)N[C@@H](Cc1ccccc1)C(=O)N[C@@H](Cc1ccccc1)C(=O)N[C@@H](Cc1ccc2ccccc2c1)C(=O)O)C(C)C)OC(=O)CCCCCCCCCCCCCCC (some centres unmarked) | refers to: OC-positive amyloid | APP/PS1 mouse, 13 months | intracortical, 100 µM, 300 nL, 5 d | reference: injected over adjacent side | amyloid oligomer area ratio | 0.55 ± 0.13 |
| O=c1c(OCc2ccccc2)c(-c2cccc([N+](=O)[O-])c2)oc2ccccc12 |  | diabetic rat | 7.5 mg/kg, day 1, p-nitrophenyl β-glucoside induced |  | blood glucose | 401 ± 4.89 mg/dL |
| CC(C)(O)c1ncc([S@](N)(=O)=NC(=O)Nc2c3c(cc4c2CCC4)CCC3)s1 | IL-1β release, Bayesian PK/PD model | healthy humans, whole blood ex vivo | Emax fixed at 1, added: LPS |  | Hill coefficient | 0.715 |
| O=C(O)c1ccc2[nH]cc(-c3ccc4cc(O)ccc4c3)c2c1 | Aβ plaque burden, immunohistochemistry | APP/PS1 mice, cortex | dose not given |  | reduction | 30% |
| CC(=O)N/C(N)=N/C(=N\S(=O)(=O)c1ccc(C(F)(F)F)cc1)N1C[C@H](c2ccccc2)C(c2ccc(Cl)cc2)=N1 |  | β-arrestin 2 knockout mouse, diet-induced obese | 3 mg/kg/day, 7 days |  | hyperinsulinaemia | no effect |
| CC[C@@H](C)N([11CH3])C(=O)c1nc(-c2ccccc2Cl)c2ccccc2n1 | PET from VT | rhesus monkey, cerebellum | dose not given |  | TSPO specific binding | 82% |
| CN(C)c1ccc(-c2oc3ccccc3c(=O)c2OCc2ccccc2)cc1 |  | diabetic rat | 5 mg/kg, day 21, p-nitrophenyl β-glucoside induced |  | blood glucose | 170 ± 4.63 mg/dL |
| Cc1cccc(O[C@H]2CCC[C@@H](C(C)CNCc3ccncc3)C2)c1 (relative stereo) |  | APP/PS1 mouse | dose not given, chronic treatment |  | plasma IFN-γ level | decreased |
| Cc1nc(C)c(C=[N+]([O-])C(C)(C)C)nc1C | Western blot, refers to: GSK-3β phospho-Ser9 | mouse, MPTP model | 90 mg/kg |  | protein level increase | 299% |
| COc1ccc(-c2oc3ccccc3c(=O)c2OCc2ccccc2)cc1 |  | diabetic rat | 7.5 mg/kg, day 7, p-nitrophenyl β-glucoside induced |  | blood glucose | 310 ± 5.1 mg/dL |
| COc1cc(/C=C/C(=O)NCCCCCCNC2=C3C[C@@H](C)C[C@H](OC)[C@H](O)[C@@H](C)/C=C(\C)[C@H](OC(N)=O)[C@@H](OC)/C=C\C=C(/C)C(=O)NC(=CC2=O)C3=O)ccc1O |  | MDA-MB-231, mouse xenograft | intravenous, 10 mg/kg every three days, 15 d |  | T/C relative tumour volume | 29.7% |

For quick reference, copied from above:
| Structure (SMILES) | test | system | setting | scale | endpoint | value |
| --- | --- | --- | --- | --- | --- | --- |
| O=c1cc(-c2ccc(O)cc2)oc2cc3oc4cc(O)c(O)cc4c3c(O)c12 | DPPH scavenging, absorbance |  |  |  | EC50 | > 20000 µM |
| COc1c2c(cc3oc(C)cc(=O)c13)O[C@H](C(C)(C)O[C@@H]1O[C@H](CO)[C@@H](O)[C@H](O)[C@H]1O)C2 | analgesic effect | Kunming mouse, female | oral, 1 mg/kg, 0 h, 55 °C, before dosing, 30 s cut-off |  | hot plate latency | 9.27 ± 1.46 s |
| CC[C@H]1[C@@H](O)[C@@H]2[C@H](CC[C@]3(C)[C@@H]([C@H](C)CCOS(=O)(=O)[O-])CC[C@@H]23)[C@@]2(C)CC[C@@H](O)C[C@@H]12.[Na+] | EchoMRI | ob/ob NASH mouse model | oral, 3 mg/kg once daily, 8 weeks | reference: body weight | whole-body fat mass | 40.4 ± 0.9% |
